Measured values gathered from unrelated publications.
Numbered parts are unrelated; each lists some results of a single study. Values joined by “and” are separate records of one study, mostly repeats; a detail may differ. Changes are numbered by the printed parent chain.
UniProt P07949, sequence (whole entry, unmodified, looked up): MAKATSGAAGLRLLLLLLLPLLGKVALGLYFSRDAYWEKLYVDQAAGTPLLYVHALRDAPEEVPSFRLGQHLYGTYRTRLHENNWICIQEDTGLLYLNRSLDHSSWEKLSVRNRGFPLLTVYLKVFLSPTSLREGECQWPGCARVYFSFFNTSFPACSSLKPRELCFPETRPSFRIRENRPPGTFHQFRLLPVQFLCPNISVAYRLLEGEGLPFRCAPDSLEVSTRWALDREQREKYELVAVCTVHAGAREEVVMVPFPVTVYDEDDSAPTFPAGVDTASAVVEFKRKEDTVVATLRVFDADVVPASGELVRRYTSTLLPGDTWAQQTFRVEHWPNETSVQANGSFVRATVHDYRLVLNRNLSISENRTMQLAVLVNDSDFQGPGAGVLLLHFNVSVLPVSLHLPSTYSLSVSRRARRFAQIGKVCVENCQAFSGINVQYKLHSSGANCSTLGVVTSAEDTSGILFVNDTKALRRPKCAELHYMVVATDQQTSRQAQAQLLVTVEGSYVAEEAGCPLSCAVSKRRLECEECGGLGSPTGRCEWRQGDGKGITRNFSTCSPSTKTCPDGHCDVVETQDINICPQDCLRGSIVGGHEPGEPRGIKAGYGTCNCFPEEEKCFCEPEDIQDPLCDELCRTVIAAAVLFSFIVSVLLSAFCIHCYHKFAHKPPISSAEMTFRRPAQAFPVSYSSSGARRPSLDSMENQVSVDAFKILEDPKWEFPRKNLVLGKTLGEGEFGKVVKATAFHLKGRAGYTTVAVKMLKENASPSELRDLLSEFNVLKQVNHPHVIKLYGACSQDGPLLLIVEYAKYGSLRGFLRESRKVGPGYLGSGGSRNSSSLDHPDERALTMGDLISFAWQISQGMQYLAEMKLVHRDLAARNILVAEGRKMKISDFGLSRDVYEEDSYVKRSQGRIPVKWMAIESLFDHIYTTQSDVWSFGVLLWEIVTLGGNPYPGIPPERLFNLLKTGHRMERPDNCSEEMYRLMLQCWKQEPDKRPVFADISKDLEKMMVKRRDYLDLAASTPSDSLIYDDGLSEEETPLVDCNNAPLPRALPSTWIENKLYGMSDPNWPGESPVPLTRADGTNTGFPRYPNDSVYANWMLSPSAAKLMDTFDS
UniProt Q5S007, sequence (whole entry, looked up): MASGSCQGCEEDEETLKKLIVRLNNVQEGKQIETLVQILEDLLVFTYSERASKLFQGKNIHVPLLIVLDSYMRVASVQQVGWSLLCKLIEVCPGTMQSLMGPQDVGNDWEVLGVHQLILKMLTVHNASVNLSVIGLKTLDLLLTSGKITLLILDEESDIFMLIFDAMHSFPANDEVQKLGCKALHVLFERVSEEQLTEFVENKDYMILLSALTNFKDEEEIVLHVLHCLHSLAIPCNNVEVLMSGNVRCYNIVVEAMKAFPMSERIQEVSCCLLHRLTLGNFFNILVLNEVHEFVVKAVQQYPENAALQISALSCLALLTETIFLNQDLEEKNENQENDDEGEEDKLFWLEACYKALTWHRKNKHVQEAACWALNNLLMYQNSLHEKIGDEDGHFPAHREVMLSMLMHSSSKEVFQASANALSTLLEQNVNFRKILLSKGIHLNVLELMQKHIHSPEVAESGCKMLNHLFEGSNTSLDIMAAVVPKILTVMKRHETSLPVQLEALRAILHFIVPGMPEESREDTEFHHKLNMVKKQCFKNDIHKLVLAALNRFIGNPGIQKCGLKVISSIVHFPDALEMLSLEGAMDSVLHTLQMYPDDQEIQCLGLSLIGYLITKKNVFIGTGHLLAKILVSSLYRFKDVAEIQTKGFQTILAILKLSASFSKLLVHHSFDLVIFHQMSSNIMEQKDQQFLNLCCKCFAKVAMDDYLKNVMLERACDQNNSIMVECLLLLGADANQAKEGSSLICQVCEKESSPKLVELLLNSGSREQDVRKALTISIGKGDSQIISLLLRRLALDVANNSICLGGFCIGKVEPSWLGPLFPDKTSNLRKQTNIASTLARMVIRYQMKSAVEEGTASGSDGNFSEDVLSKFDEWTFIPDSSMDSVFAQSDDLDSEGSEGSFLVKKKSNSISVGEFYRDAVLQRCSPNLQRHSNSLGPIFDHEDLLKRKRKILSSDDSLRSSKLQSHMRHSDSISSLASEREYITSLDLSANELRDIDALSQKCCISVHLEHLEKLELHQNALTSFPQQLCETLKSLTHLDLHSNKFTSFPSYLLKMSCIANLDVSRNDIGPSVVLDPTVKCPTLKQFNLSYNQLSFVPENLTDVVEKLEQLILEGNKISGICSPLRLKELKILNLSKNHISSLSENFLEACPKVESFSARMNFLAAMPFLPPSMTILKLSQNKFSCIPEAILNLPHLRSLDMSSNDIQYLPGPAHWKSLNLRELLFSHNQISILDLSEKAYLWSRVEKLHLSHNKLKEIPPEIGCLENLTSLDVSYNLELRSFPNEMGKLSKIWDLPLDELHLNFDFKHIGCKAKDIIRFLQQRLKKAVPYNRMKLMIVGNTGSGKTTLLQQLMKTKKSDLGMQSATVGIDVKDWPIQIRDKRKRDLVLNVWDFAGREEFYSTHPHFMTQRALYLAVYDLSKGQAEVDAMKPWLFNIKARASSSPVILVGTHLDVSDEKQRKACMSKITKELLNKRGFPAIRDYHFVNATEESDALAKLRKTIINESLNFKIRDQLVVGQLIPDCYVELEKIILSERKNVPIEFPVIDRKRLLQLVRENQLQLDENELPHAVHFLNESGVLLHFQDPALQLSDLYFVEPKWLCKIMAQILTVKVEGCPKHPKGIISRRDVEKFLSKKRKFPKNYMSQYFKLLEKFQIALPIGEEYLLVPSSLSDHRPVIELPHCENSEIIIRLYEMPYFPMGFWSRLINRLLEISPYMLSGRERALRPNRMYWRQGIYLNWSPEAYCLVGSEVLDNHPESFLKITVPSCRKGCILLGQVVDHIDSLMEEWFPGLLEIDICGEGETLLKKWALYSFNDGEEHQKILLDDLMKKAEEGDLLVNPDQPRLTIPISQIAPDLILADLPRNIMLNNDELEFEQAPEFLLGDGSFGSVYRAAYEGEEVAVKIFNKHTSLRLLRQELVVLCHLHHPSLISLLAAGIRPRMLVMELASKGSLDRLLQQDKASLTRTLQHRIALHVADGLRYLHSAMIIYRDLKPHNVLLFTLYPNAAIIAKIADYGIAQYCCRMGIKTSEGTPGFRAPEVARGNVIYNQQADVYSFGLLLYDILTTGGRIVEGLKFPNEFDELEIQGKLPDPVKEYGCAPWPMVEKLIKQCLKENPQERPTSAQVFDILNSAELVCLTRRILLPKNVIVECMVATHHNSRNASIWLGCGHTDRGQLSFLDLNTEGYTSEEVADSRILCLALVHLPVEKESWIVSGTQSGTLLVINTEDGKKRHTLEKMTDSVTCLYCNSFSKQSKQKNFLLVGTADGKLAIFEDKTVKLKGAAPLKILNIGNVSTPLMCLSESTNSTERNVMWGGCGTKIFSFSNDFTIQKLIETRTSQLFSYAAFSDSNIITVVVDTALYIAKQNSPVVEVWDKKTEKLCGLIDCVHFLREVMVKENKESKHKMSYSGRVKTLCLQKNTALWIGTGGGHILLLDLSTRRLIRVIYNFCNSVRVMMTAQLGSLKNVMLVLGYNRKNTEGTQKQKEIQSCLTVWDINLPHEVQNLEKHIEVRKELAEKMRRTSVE
UniProt Q8TDX7, sequence (whole entry, looked up): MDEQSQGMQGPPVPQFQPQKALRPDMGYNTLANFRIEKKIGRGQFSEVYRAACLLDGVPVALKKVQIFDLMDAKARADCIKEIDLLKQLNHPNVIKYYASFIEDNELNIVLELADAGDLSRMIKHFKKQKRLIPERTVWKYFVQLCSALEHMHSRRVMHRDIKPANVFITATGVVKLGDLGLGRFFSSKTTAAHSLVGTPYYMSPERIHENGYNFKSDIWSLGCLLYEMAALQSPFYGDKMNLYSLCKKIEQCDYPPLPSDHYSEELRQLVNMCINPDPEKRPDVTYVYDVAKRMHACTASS

Series 1 — cell line: mouse MPNST tumor cells; method: high-content nuclear imaging; refers to: cell number; tested at: 10 µM; time: 12 h; notes: mean of 2 replicates; relative to: plate mean; direction: higher = more cells; measurement: nuclei count
NCC[C@H](O)C(=O)N[C@@H]1C[C@H](N)[C@@H](O[C@H]2O[C@H](CN)[C@@H](O)[C@H](O)[C@H]2O)[C@H](O)[C@H]1O[C@H]1O[C@H](CO)[C@@H](O)[C@H](N)[C@H]1O: 0.197 z-score
CCCCCS(=O)(=O)CCCCCCCCCCn1c(-c2ccc(O)cc2)c(C)c2cc(O)ccc21: -1.1 z-score
N#Cc1c(NC(=O)c2cccc3ccccc23)sc2c1CCCC2: -4.35 z-score
CC(C)(C)C(=O)C(=Nc1ccc(Cl)cc1)NNc1ccc(Cl)cc1: 1.69 z-score

Series 2 — method: DHFR PCA, deep sequencing; medium: yeast; together with: (+)-ABA 2500 µM; relative to: wild-type fitted maximum; direction: higher = stronger binding; measurement: relative binding score
Target: ABI1, truncated, D143A, DHFR fusion (Arabidopsis thaliana)
Notes: methotrexate growth selection, single substitutions
Starting sequence: PYL1, truncated, DHFR fusion (Arabidopsis thaliana); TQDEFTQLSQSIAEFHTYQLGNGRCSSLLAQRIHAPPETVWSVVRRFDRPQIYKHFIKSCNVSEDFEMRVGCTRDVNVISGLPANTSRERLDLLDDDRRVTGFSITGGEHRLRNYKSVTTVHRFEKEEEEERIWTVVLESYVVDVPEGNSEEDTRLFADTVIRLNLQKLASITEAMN; partner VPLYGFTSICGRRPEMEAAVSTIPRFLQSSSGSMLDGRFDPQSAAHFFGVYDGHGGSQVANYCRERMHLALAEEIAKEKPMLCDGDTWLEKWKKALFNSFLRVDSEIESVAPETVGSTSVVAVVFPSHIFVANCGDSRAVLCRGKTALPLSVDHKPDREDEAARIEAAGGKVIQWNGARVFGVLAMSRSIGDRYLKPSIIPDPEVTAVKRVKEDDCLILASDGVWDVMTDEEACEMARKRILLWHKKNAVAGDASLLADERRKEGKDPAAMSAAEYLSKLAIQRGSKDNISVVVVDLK
I79T: 102%
K116G: 86.2%
G71S: 86.3%
H110L: 49%
Y141A: 9.07%
Y18I: 93%
H122C: 92.4%
E64F: 96.9%

Series 3 — method: Incucyte 3D growth; tested at: 30 µM; direction: higher = more growth; measurement: spheroid area
Compound: CC(C)(C(=O)O)[C@H](NC(=O)Cc1cccc(I)c1)c1ccc2oc(=O)[nH]c2c1
IPC-298; 270 h: 3.3e+07 a.u. and 4.57e+07 a.u. and 2.61e+07 a.u. and 3.54e+07 a.u. and 2.8e+07 a.u. and 4.1e+07 a.u.
MEL-JUSO; 36.52 h: 1.19e+07 a.u. and 1.24e+07 a.u. and 1.22e+07 a.u. and 1.04e+07 a.u. and 1.02e+07 a.u.
IPC-298; 162 h: 2.28e+07 a.u. and 2.99e+07 a.u. and 2.53e+07 a.u. and 2.69e+07 a.u. and 2.65e+07 a.u. and 3.1e+07 a.u.
NCI-H358; 180 h: 5.74e+06 a.u. and 9.37e+06 a.u. and 5.93e+06 a.u. and 7.73e+06 a.u. and 6.97e+06 a.u. and 7.59e+06 a.u.

Series 4 — cell line: A-375; tested at: 100 µM; time: 18 h; measurement: viability
CC(C)Cc1ccc(C(C)C(=O)O)cc1 (centres unmarked): 104%
CC(=O)Oc1cc(C(C)C)c(OCCN(C)C)cc1C: 82.9%
C[N+]1(CCCCC[N+]2(C)CCCC2)CCCC1: 91.1%

Series 5 — target: panel of 300 human kinases; tested at: 0.5 µM; direction: higher = more selective; measurement: Gini score
Cc1cn(-c2cc(NC(=O)c3ccc(C)c(Nc4nccc(-c5cccnc5)n4)c3)cc(C(F)(F)F)c2)cn1: 0.78
NC(=O)c1ccc2nc(-c3ccc(Oc4ccc(Cl)cc4)cc3)[nH]c2c1: 0.63
CC(C)(C)n1nc(Cc2cccc3ccccc23)c2c(N)ncnc21: 0.67

Series 6 — method: PRP chromatography estimate; medium: 1,9-decadiene/PBS; pH: 7.4; measurement: logD
CC(C)C[C@@H]1NC(=O)[C@H](CC(C)C)NC(=O)[C@@H](C(C)C)NC(=O)[C@H](C(C)C)NC(=O)[C@H](C(C)C)NC(=O)[C@H](Cc2cscn2)NC(=O)[C@H](C)NC1=O: -1.27
CC(C)C[C@@H]1NC(=O)[C@H](C)NC(=O)[C@H](CC(C)C)NC(=O)[C@@H](CC(C)C)NC(=O)[C@H](CC(C)C)NC(=O)[C@@H](C)NC(=O)[C@@H](CC(C)C)NC1=O: -0.242
CC(C)C[C@@H]1NC(=O)[C@H](CC(C)C)NC(=O)[C@H](CC(C)C)NC(=O)[C@@H](C)NC(=O)[C@H](C(C)C)NC(=O)[C@H](Cc2cscn2)NC(=O)[C@H](C)NC1=O: -2.14

Series 7 — observed: cell-free assay; method: competition with immobilised ligand; tested at: 0.1 µM; measurement: remaining binding
Compound: CNC(=O)c1ccc(Nc2ncc(C(F)(F)F)c(NCc3nccnc3N(C)S(C)(=O)=O)n2)cc1
Epidermal growth factor receptor (EGFR, Homo sapiens, UniProt P00533, T790M): 99%
Epidermal growth factor receptor (EGFR, Homo sapiens, UniProt P00533, G719S): 92%
Serine/threonine-protein kinase Nek9 (NEK9, Homo sapiens, UniProt Q8TD19): 80%
Receptor-type tyrosine-protein kinase FLT3 (FLT3, Homo sapiens, UniProt P36888): 46%
Leucine-rich repeat serine/threonine-protein kinase 2 (LRRK2, Homo sapiens, UniProt Q5S007): 60%
Tyrosine-protein kinase ABL1, non-phosphorylated (ABL1, Homo sapiens, UniProt P00519, Q252H): 98%
Serine/threonine-protein kinase 32C (STK32C, Homo sapiens, UniProt Q86UX6): 100%
Serine/threonine-protein kinase RIO1 (RIOK1, Homo sapiens, UniProt Q9BRS2): 100%
Receptor-type tyrosine-protein kinase FLT3, autoinhibited (FLT3, Homo sapiens, UniProt P36888): 74%
Glycogen synthase kinase-3 alpha (GSK3A, Homo sapiens, UniProt P49840): 83%
Phosphatidylinositol 4,5-bisphosphate 3-kinase catalytic subunit beta isoform (PIK3CB, Homo sapiens, UniProt P42338): 45%
Proto-oncogene tyrosine-protein kinase receptor Ret (RET, Homo sapiens, UniProt P07949, M918T): 72%
Casein kinase I isoform alpha (CSNK1A1, Homo sapiens, UniProt P48729): 94%
STE20/SPS1-related proline-alanine-rich protein kinase (STK39, Homo sapiens, UniProt Q9UEW8): 100%
Cyclin-dependent kinase 16 (CDK16, Homo sapiens, UniProt Q00536): 99%
Serine/threonine-protein kinase TBK1 (TBK1, Homo sapiens, UniProt Q9UHD2): 75%
Membrane-associated tyrosine- and threonine-specific cdc2-inhibitory kinase (PKMYT1, Homo sapiens, UniProt Q99640): 94%
Cyclin-dependent kinase 4, with cyclin D3 (CDK4, Homo sapiens, UniProt P11802): 100%
Receptor-interacting serine/threonine-protein kinase 1 (RIPK1, Homo sapiens, UniProt Q13546): 100%
Tyrosine-protein kinase ABL1, phosphorylated (ABL1, Homo sapiens, UniProt P00519, Y253F): 100%
Serine/threonine-protein kinase Nek7 (NEK7, Homo sapiens, UniProt Q8TDX7): 70%
Inhibitor of nuclear factor kappa-B kinase subunit epsilon (IKBKE, Homo sapiens, UniProt Q14164): 99%
Mast/stem cell growth factor receptor Kit (KIT, Homo sapiens, UniProt P10721, A829P): 85%
Phosphatidylinositol 4,5-bisphosphate 3-kinase catalytic subunit alpha isoform (PIK3CA, Homo sapiens, UniProt P42336, C420R): 100%
Death-associated protein kinase 2 (DAPK2, Homo sapiens, UniProt Q9UIK4): 68%

Series 8 — species: mouse; medium: microsomes or S9; tested at: 2 µM; time: 0.5 h; measurement: remaining compound
OCCC1(CNc2cnc3cc(Cl)c(Cl)cc3n2)CCOC1 (centres unmarked): 20.1%
COc1ccc(CN(C(=O)Cn2nnc3ccccc32)C(C(=O)NCCC(C)C)c2ccccc2)cc1 (centres unmarked): 62.1%
O=C(O)C(c1ccsc1)N1C[C@@H]2Oc3c(F)ccc(F)c3O[C@@H]2C1 (some centres unmarked): 76.3%
Cn1ccnc1CC1CCN(c2cnccn2)CC1: 33.8%

Further values, each from its own experiment
CC(C)S(=O)(=O)c1ccc2nccc(Nc3ccc4scnc4c3)c2c1  EC50 (HT-29; necroptosis; together with: TNF-α, Smac mimetic, z-VAD): 7.9 µM
CC(C)n1cnc(-c2ccc(F)cc2)c1-c1ncc(C(=O)Nc2ccc(N3CCN(C)CC3)cc2)[nH]1  Constipation incidence (IPF patients; 30 mg once daily, adverse event): 0%

Repeated from above (series 3):
IPC-298; 270 h: 3.3e+07 a.u. and 4.57e+07 a.u. and 2.61e+07 a.u. and 3.54e+07 a.u. and 2.8e+07 a.u. and 4.1e+07 a.u.
MEL-JUSO; 36.52 h: 1.19e+07 a.u. and 1.24e+07 a.u. and 1.22e+07 a.u. and 1.04e+07 a.u. and 1.02e+07 a.u.
IPC-298; 162 h: 2.28e+07 a.u. and 2.99e+07 a.u. and 2.53e+07 a.u. and 2.69e+07 a.u. and 2.65e+07 a.u. and 3.1e+07 a.u.
NCI-H358; 180 h: 5.74e+06 a.u. and 9.37e+06 a.u. and 5.93e+06 a.u. and 7.73e+06 a.u. and 6.97e+06 a.u. and 7.59e+06 a.u.
